Measured values of several laboratories.
Each line is one published result; not all experiments were run side by side. Numbers after ± are the reported error.

COc1cc(CNC(=O)C[C@H](C)CCC=C(C)C)ccc1OCc1cn(-c2ccccc2F)nn1 gave a growth percent of 105% (OVCAR-3 ovarian cancer cells; SRB; 10 µM, 48 h).
With CC(C)=CCc1c(O)cc(CO)cc1O the glucose consumption was 4.24 ± 0.92 mM (HepG2, palmitic acid-induced insulin resistance; 5.0 µM, 24 h).
COc1ccc2c(c1)C(=C1Nc3ccccc3C1=NOCC(O)CO)C(=O)N2 (stereo not shown) — result for protein level: “decreased” (PANC-1 and MIA PaCa-2; Western blot, item: Mcl-1; concentration not given, 24 h).
For CN(C(=NN=C(c1ccccc1)c1ccccn1)[S][Ga]([Cl])[Cl])C1CCCCC1, the protein level was about 1.5 fold (HepG2; western blot, item: TfR1; 5 µM, 24 h; baseline: vehicle).
Under “significantly affected genes”, Cc1c2ccnc(C(=O)N[C@H](C)CN(C)C)c2cc2c3cc(OCCCN4CCN(C)CC4)ccc3n(C)c12 is recorded as 0.098% (healthy donor iPSCs; RNA-seq; 0.1 µM).
With O=C(/C=C/c1cccc(S(=O)(=O)Nc2ccc(F)cc2F)c1)NO the relative potency was 0.405 (MOPC-315; cell growth; 24 h; baseline: belinostat).
C=C1[C@H](O)CC(=C/C=C2\CCC[C@]3(C)[C@@H]([C@@H](C)CCCC)CC[C@@H]23)C[C@H]1O has an EC50 ratio of 2.5 (HL-60; cell differentiation, NBT reduction; baseline: compound over 1α,25-dihydroxyvitamin D3).
COc1cc(CNC(=O)C[C@H](C)CCC=C(C)C)ccc1OCc1cn(-c2cccc(Cl)c2)nn1 has a growth percent of 97.4% (SW-620; SRB; 10 µM, 48 h).
Nc1ncc(-c2cnn(C3CCNCC3)c2)cc1-c1nc2ccc(O)cc2o1: “early apoptotic cells” 23.6% (HEL 92.1.7; annexin V/PI flow cytometry; 10 µM, 48 h).
For COc1cc(CNC(=O)C[C@H](C)CCC=C(C)C)ccc1OCc1cn(-c2ccccc2)nn1, the growth percent was 66.2% (MDA-MB-468 breast cancer cells; SRB; 10 µM, 48 h).
Nc1c(S(=O)(=O)O)cc(Nc2cccc(S(N)(=O)=O)c2)c2c1C(=O)c1ccccc1C2=O: mRNA level “increased” (primary mouse articular chondrocytes; real-time PCR, item: Col2a1; 25 µM, micromass culture).
The onset concentration of COCCNCC(=O)N(CCCCN)CC(=O)N(CC(=O)N(CC(=O)N(CCCCN)CC(=O)N[C@@H](CCCCN)C(=O)N[C@H](CCCCN)C(=O)N[C@@H](CCSC)C(=O)NCCCC[C@H](NC(=O)[C@H](CCSC)NC(=O)[C@@H](CCCCN)NC(=O)[C@H](CCCCN)NC(=O)CN(CCCCN)C(=O)CN(C(=O)CN(Cc1ccc2c(c1)OCO2)C(=O)CN(CCCCN)C(=O)CNCCOC)[C@H](C)c1ccccc1)C(N)=O)[C@H](C)c1ccccc1)Cc1ccc2c(c1)OCO2 is reported as 1 µM (H358; qRT-PCR, item: PLEC mRNA; 6 days).
The growth percent of COc1cc(CNC(=O)C[C@H](C)CCC=C(C)C)ccc1OCc1cn(-c2cccc(C(F)(F)F)c2)nn1 is reported as 45.1% (OVCAR-4 ovarian cancer cells; SRB; 10 µM, 48 h).
O=C1C[C@@H](c2ccc(O)c(O)c2)c2c(cc(O)c3c2O[C@H](c2ccc(O)c(O)c2)[C@H](O)C3)O1 — result for “glucose uptake stimulation”: 80.9 ± 3.26% (rat L6 myotubes; 10 µg/mL, 24 h).
For CNC(=O)c1ccccc1Oc1nc(Nc2cc(OC)c(OC)c(OC)c2)ncc1Br, uridine uptake read “inhibited” (C2C12 myotubes; inhibitor; concentration not given).
COc1cc(CNC(=O)C[C@H](C)CCC=C(C)C)ccc1OCc1cn(-c2ccc(Cl)c(Cl)c2)nn1 has a growth percent of 58.4% (SF-268 CNS cancer cells; SRB; 10 µM, 48 h).
For CCC(=C(c1ccc(Cl)cc1)c1ccc(OCCCN(C)C)cc1)c1ccc(OC)cc1, the growth inhibition was 44.3% (NCI-60 tumour cell lines; 10 µM, mean over cell lines).
For CC(C)C[C@@H]1NC(=O)[C@H](CC(C)C)NC(=O)[C@H](Cc2ccccc2)NC(=O)[C@@H]2CSSC[C@@H](C(=O)O)NC(=O)[C@H](CSSC[C@H](N)C(=O)N3CCC[C@H]3C(=O)N2)NC(=O)CNC1=O, cell migration read “inhibited” (THP-1; 200 µM, 18 h, Transwell, 10% serum, added: fibrinogen).
The potency ratio of Cc1ccc(C(=O)OCCCn2ccc(=O)c(OCc3ccccc3)c2C)cc1 is reported as about 2 fold (PC-12; cell growth, MTT; baseline: docetaxel over compound IC50).

Some of these lines once more:
COc1cc(CNC(=O)C[C@H](C)CCC=C(C)C)ccc1OCc1cn(-c2ccc(Cl)c(Cl)c2)nn1 has a growth percent of 58.4% (SF-268 CNS cancer cells; SRB; 10 µM, 48 h).
For COc1cc(CNC(=O)C[C@H](C)CCC=C(C)C)ccc1OCc1cn(-c2ccccc2)nn1, the growth percent was 66.2% (MDA-MB-468 breast cancer cells; SRB; 10 µM, 48 h).
